Earlier results, collected from citations in different studies.
Compare with care: the assays were run in different laboratories. ± marks the error that the study gave.
Sequence of UniProt P50406 (whole entry, looked up): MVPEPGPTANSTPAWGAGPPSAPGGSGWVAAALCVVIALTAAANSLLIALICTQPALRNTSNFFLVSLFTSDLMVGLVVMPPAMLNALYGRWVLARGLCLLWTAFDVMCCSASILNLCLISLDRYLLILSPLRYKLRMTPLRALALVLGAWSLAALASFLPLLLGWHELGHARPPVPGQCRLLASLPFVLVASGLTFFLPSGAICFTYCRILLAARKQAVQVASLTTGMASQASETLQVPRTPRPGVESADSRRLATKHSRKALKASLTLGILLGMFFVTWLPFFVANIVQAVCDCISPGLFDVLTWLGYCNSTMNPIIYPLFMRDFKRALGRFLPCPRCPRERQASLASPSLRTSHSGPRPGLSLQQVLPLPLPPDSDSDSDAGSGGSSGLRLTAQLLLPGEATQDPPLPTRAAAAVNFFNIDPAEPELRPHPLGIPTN
Sequence of UniProt Q5U3Y7 (whole entry, looked up): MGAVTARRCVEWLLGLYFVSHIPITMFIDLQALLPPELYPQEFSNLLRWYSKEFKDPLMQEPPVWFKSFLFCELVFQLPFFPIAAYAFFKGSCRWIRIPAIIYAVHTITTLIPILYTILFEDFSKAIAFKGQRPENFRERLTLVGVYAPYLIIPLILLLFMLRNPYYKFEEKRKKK

The IC50 of `Clc1cc(Br)ccc1-c1ccc(CNCC2CCNCC2)o1` is reported as 1 µM (Trypanosoma cruzi; Tulahuen C4 LacZ).
`CN1C/C(=C\c2ccc(Cl)cc2Cl)C/C(=C\c2ccc(Cl)cc2Cl)C1` gave a Ki of > 100 µM (alpha4beta2 nicotinic acetylcholine receptor; binding; together with: [3H]nicotine).
`CC(=O)N(O)CCCP(=O)(O)O` gave an IC50 of 0.09 to 0.35 µM (Plasmodium falciparum; parasite growth; 3D7; range reported).
With `CCCCCN(C)CCC(O)(P(=O)(O)O)P(=O)(O)O` the IC50 was > 70 µM (Plasmodium falciparum; parasite growth).
For `FC(F)(F)c1cccc(CNC2CCN(CCc3ccccc3)CC2)c1`, the IC50 was 15.7 µM (Trypanosoma cruzi; Tulahuen C4 LacZ).
`C=CCN(CC=C)CCc1c[nH]c2ccc(OC)cc12` has a Ki of 0.253 µM (Tmem97 (Rattus norvegicus, UniProt Q5U3Y7)).
`Cc1ccc(C(=O)c2oc3ccc4c(C)cc(=O)oc4c3c2C)cc1` gave an IC50 of > 32 µM (Trypanosoma cruzi; Tulahuen C4 LacZ).
`oxadiargyl` gave an IC50 of 20.7 ± 2.4 µM (Toxoplasma gondii; intracellular growth; wild type, Nluc reporter).
`C#CCCCC[C@@H](C)C(=O)N(C)[C@H](C(=O)N(C)[C@H](C(=O)N[C@H](C(=O)N(C)[C@@H](C)C(=O)N(C)[C@@H](Cc1ccccc1)C(N)=O)C(C)C)C(C)C)C(C)C` has an IC50 of 2.4 µM (Leishmania donovani).
The IC50 of `CCC[C@@H](C(=O)c1ccc2c(c1)OCO2)N1CCCC1` is reported as 0.0021 ± 0.0002 µM (dopamine transporter, rat; dopamine uptake, inhibitor; brain synaptosomes).
`C[N+]1=C2C=C(NCCc3ccc(O)cc3)C(=O)c3[nH]cc(c32)CC1` gave an IC50 of < 0.05 µM (Plasmodium falciparum; parasite growth; Dd2, multidrug-resistant).
`CCOc1ccc(/C=C/c2nc(=O)c3ccccc3o2)cc1` has an IC50 of 17.8 µM (Trypanosoma cruzi; Tulahuen C4 LacZ).
The IC50 of `C#CCCCCCC(=O)N(C)[C@H](C(=O)N(C)[C@H](C(=O)N(C)[C@H](C(=O)N(C)[C@@H](C)C(=O)N(C)[C@@H](Cc1ccccc1)C(=O)OC)C(C)C)C(C)C)C(C)C` is reported as > 14 µM (Leishmania donovani).
For `C=C(C)[C@H]1Cc2c(ccc3c2O[C@@H]2COc4cc(OC)c(OC)cc4[C@@H]2C3=O)O1`, the IC50 was 27 µM (Plasmodium falciparum; parasite growth; 3D7).
With `CC(=O)CCCC[C@@H](C)C(=O)N(C)[C@H](C(=O)N(C)[C@H](C(=O)N[C@H](C(=O)N(C)[C@@H](C)C(=O)N(C)[C@@H](Cc1ccccc1)C(N)=O)C(C)C)C(C)C)C(C)C` the IC50 was > 13.5 µM (Leishmania donovani).
With `C=CCN(CC=C)CCc1c[nH]c2ccccc12` the Ki was 1.72 µM (HTR6 (Homo sapiens, UniProt P50406); binding, [3H]LSD displacement).
